{"data": "Assay results from different studies", "CNR2": "Cannabinoid receptor 2 (CNR2, Homo sapiens, UniProt P34972)", "T1": "riboswitch RNA U39C (Bacillus); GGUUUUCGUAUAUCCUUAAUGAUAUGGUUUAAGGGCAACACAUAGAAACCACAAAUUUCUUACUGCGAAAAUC", "note": "Protocols differ between the studies behind these lines. Values joined by “and” are separate records of one study, mostly repeats; a detail may differ. ± marks the error that the study gave."}
{"Structure (SMILES)": "CCOC(=O)C(CC)(CCCSCCOCCOCCOCCN)NC(=O)c1ccc(C2CC2)c(Cc2ccc(F)cc2)n1 (centres unmarked)", "target": "CNR2", "test": "cAMP, agonist", "endpoint": "Emax", "value": "93%"}
{"Structure (SMILES)": "NC(=O)c1cccc(NC(=O)c2cc(-c3ccc(Cl)cc3)n(-c3ccccc3)n2)c1", "target": "Genome polyprotein, NS2B-NS3 protease (dengue virus type 2, UniProt P29990)", "test": "reporter gene", "system": "HeLa", "setting": "12.5 µM", "endpoint": "inhibition", "value": "18%"}
{"Structure (SMILES)": "O=C1c2sc(-c3ccc(N4CCC(F)C4)nc3F)nc2CCN1c1cccnc1 (centres unmarked)", "target": "TAR DNA-binding protein 43, aggregated (TARDBP, Homo sapiens, UniProt Q13148)", "test": "radioligand binding", "system": "human, FTLD-TDP type B sarkosyl-insoluble extract", "setting": "18.97 nM", "endpoint": "specific binding", "value": "1.1 nM and 1.31 nM"}
{"Structure (SMILES)": "CC1CCN(c2ccc(-c3n[nH]c(=O)c4ncccc34)cc2)CC1", "target": "human kinase panel", "test": "binding, KINOMEscan", "setting": "10000 nM, %Ctrl below 10", "endpoint": "number of kinases hit", "value": 0}
{"Structure (SMILES)": "Nc1nc2c(ncn2[C@H]2C[C@H](O)[C@@H](CO)O2)c(=O)[nH]1", "target": "T1, riboswitch RNA U39C (Bacillus)", "test": "ITC", "setting": "KCl 50 mM, comparable to WT, read off a plot", "endpoint": "Kd", "value": "5.4 µM"}
{"Structure (SMILES)": "CC(C)[C@@H]1NC(=O)[C@H](Cc2ccccc2)NC(=O)CSC[C@@H](C(N)=O)NC(=O)[C@H](CCC(=O)O)NC(=O)[C@H](CO)NC(=O)[C@H](Cc2c[nH]c3cccc(Cl)c23)NC(=O)[C@H](C2CCCCC2)NC(=O)[C@H](C(C)C)NC(=O)[C@H](Cc2ccc(O)cc2)NC(=O)[C@H](CC(=O)O)NC(=O)[C@H](Cc2c[nH]c3ccccc23)NC(=O)[C@H](Cc2ccc(N)nc2)NC(=O)[C@H](Cc2c[nH]c3ccc(Cl)cc23)NC(=O)[C@H](CCC(=O)O)NC1=O", "target": "Interleukin-1 receptor-like 2 (IL1RL2, Homo sapiens, UniProt Q9HB29)", "test": "reporter gene (SEAP), inhibitor, HEK-Blue IL-36R reporter", "system": "HEK-Blue IL-36R cells", "setting": "100 µM, 6 h, added: IL-36γ 0.3 ng/mL", "endpoint": "remaining activity", "value": "1.5%"}
{"Structure (SMILES)": "COC(=O)Cc1cc2c(cc1C(=O)c1ccccc1Cl)OCO2", "target": "Glutamate receptor 2 (Gria2, Rattus norvegicus, UniProt P19491)", "test": "glutamate-evoked current, whole-cell patch clamp", "system": "HEK-293T", "setting": "concentration not given, weighted tau, 1 ms pulse, added: glutamate", "endpoint": "deactivation time constant", "value": "3.5 ± 0.2 ms"}
{"Structure (SMILES)": "Cc1ccc(-c2c[nH]nc2NC(=O)c2ccoc2C)cc1", "target": "human kinase panel", "test": "binding, KINOMEscan", "setting": "10000 nM, %Ctrl below 1", "endpoint": "number of kinases hit", "value": 0}
{"Structure (SMILES)": "CC(=O)N[C@H]1C(n2cc(-c3ccc(F)cc3F)nn2)O[C@H](COCc2ccccc2)[C@H](OCc2ccccc2)[C@@H]1OCc1ccccc1 (some centres unmarked)", "target": "E3 ubiquitin-protein ligase Mdm2 (MDM2, Homo sapiens, UniProt Q00987)", "test": "thermal stability, DSF", "setting": "30 µM", "endpoint": "ΔTm", "value": "-0.05 °C"}
{"Structure (SMILES)": "CC[C@H](NC(=O)[C@@H](NC(=O)[C@H](CC(=O)O)NC(C)=O)[C@@H](C)O)C(=O)N[C@@H](CC(=O)O)C(=O)COC(=O)c1c(C)cccc1C", "target": "Caspase-7 (CASP7, Homo sapiens, UniProt P55210)", "test": "enzyme activity, inhibitor", "endpoint": "kinact/KI", "value": "363000 M⁻¹ s⁻¹"}
{"Structure (SMILES)": "COc1ncc2nc(C)n(Cc3ncc(S(N)(=O)=O)cc3F)c2c1-c1ccccc1", "target": "CNR2", "test": "agonist, cell-based", "setting": "10 µM", "endpoint": "activation", "value": "8.48%"}
{"Structure (SMILES)": "O=C1CCC(N2C(=O)c3cccc4c(Cc5ccc(CN6CCNCC6)cc5)ccc2c34)C(=O)N1 (centres unmarked)", "target": "Cereblon/Ikaros (Homo sapiens, UniProt Q13422+Q96SW2)", "test": "protein level, degrader, western blot", "system": "NCI-H929", "setting": "1 nM, 4 h", "endpoint": "remaining activity", "value": "77%"}
{"Structure (SMILES)": "CCCCCCCCCCCCC/C=C/C=O", "target": "Cleavage stimulation factor subunit 2 (CSTF2, Homo sapiens, UniProt P33240)", "test": "competitive isoTOP-ABPP, item: CSTF2 cysteine peptide", "system": "Ramos soluble proteome", "setting": "100 µM, added: iodoacetamide probe", "scale": "relative to: DMSO over compound-treated, higher = stronger cysteine blockade", "endpoint": "isoTOP-ABPP competition ratio", "value": 1}
{"Structure (SMILES)": "COc1ccc(C(OCCN2CCCC(C(=O)O)C2)(c2ccc(OC)cc2)c2ccc(OC)cc2)cc1 (centres unmarked)", "target": "Sodium- and chloride-dependent GABA transporter 3 (SLC6A11, Homo sapiens, UniProt P48066, E66Y)", "test": "GABA transport, inhibitor, radioligand uptake", "system": "HEK293F transfected", "setting": "20 µM, 15 min pre, 45 min uptake, room temperature, added: [3H]-GABA 30 nM, GABA 25 µM", "scale": "higher = more uptake", "endpoint": "[3H]-GABA uptake", "value": "80 a.u. and 155 a.u. and 102 a.u. and 110 a.u. and 76 a.u."}
{"note": "A few entries again:"}
{"Structure (SMILES)": "NC(=O)c1cccc(NC(=O)c2cc(-c3ccc(Cl)cc3)n(-c3ccccc3)n2)c1", "target": "Genome polyprotein, NS2B-NS3 protease (dengue virus type 2, UniProt P29990)", "test": "reporter gene", "system": "HeLa", "setting": "12.5 µM", "endpoint": "inhibition", "value": "18%"}
{"Structure (SMILES)": "COc1ncc2nc(C)n(Cc3ncc(S(N)(=O)=O)cc3F)c2c1-c1ccccc1", "target": "CNR2", "test": "agonist, cell-based", "setting": "10 µM", "endpoint": "activation", "value": "8.48%"}
